Results of several laboratories.
Protocols differ between the studies behind these lines. ± gives the spread as reported.
NR1I2: Nuclear receptor subfamily 1 group I member 2 (NR1I2, Homo sapiens, UniProt O75469)
Chain of UniProt O75469 (whole entry, looked up): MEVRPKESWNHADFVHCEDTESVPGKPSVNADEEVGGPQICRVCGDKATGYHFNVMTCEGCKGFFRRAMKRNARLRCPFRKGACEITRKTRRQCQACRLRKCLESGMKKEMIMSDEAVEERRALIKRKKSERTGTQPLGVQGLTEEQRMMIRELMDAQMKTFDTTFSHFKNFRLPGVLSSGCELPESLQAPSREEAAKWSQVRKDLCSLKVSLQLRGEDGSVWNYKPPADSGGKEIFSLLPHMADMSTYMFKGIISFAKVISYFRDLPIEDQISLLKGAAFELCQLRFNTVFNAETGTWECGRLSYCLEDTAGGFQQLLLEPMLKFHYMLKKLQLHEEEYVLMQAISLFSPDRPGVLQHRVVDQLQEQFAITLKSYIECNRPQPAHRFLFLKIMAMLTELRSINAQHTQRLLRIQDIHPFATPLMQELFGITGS
CYP2A6: Cytochrome P450 2A6 (CYP2A6, Homo sapiens, UniProt P11509)
Chain of UniProt P11509 (whole entry, looked up): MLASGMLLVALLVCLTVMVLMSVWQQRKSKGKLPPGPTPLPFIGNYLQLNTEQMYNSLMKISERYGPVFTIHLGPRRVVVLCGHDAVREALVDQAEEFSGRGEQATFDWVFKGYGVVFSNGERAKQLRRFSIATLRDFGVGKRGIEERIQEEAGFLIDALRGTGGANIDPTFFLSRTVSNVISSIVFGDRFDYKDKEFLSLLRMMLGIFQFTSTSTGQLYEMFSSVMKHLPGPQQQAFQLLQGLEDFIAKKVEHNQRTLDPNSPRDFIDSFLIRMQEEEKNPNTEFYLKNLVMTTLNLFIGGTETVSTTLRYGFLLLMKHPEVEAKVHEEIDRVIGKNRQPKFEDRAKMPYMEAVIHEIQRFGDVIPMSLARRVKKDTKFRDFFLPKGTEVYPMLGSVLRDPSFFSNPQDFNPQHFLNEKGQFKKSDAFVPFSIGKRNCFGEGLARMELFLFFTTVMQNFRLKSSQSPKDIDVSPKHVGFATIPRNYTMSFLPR
Chain of UniProt Q4U2R8 (whole entry, looked up): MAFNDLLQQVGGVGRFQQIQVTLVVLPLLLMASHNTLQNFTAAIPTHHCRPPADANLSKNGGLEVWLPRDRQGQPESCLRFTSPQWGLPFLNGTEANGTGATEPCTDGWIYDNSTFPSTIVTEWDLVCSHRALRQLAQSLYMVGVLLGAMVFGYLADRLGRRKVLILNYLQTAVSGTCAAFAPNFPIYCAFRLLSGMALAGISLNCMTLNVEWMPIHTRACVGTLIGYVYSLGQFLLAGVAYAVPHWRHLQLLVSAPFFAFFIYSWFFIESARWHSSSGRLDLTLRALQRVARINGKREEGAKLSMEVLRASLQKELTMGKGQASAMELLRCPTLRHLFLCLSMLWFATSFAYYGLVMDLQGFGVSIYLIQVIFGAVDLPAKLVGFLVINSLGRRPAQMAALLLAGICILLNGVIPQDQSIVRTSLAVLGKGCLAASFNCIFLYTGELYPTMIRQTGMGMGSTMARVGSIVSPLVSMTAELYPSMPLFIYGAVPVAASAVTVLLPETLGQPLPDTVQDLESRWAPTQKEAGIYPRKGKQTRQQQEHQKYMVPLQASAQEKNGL
Chain of UniProt Q16696 (whole entry, looked up): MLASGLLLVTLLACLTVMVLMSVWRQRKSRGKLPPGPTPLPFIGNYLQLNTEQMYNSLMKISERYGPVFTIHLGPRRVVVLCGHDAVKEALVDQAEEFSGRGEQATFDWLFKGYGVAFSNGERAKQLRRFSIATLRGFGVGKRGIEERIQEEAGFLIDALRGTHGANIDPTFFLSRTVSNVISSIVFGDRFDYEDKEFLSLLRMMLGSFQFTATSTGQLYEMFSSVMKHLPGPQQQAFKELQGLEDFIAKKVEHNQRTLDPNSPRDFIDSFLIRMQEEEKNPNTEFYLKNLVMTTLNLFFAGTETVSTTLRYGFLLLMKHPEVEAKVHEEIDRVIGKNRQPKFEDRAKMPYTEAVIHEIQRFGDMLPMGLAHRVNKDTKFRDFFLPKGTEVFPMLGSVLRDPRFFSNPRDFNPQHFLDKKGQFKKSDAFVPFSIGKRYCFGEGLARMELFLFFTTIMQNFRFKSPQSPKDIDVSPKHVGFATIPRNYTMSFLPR
Chain of UniProt Q95LD9 (whole entry, looked up): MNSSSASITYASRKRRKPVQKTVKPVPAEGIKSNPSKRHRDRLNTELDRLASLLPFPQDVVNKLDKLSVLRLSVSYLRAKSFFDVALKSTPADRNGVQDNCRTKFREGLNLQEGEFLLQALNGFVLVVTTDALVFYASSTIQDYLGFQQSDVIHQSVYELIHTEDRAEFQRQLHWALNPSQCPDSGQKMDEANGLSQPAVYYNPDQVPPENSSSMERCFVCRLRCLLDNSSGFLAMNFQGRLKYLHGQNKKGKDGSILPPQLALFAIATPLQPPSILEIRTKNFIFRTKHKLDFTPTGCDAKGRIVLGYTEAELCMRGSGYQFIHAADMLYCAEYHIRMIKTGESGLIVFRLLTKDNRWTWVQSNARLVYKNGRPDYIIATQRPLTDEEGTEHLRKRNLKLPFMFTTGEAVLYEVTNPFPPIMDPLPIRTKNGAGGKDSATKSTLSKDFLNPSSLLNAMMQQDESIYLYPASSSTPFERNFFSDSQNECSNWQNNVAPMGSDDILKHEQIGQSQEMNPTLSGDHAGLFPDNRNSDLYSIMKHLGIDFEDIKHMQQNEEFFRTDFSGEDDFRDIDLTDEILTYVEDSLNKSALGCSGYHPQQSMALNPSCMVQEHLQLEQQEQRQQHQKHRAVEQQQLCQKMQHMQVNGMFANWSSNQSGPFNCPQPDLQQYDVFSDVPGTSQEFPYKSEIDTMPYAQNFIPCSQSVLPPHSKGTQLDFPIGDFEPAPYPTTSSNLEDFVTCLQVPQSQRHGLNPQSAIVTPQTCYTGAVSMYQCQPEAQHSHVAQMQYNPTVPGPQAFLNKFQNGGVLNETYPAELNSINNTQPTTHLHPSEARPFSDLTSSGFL
Chain of UniProt P08682 (whole entry, looked up): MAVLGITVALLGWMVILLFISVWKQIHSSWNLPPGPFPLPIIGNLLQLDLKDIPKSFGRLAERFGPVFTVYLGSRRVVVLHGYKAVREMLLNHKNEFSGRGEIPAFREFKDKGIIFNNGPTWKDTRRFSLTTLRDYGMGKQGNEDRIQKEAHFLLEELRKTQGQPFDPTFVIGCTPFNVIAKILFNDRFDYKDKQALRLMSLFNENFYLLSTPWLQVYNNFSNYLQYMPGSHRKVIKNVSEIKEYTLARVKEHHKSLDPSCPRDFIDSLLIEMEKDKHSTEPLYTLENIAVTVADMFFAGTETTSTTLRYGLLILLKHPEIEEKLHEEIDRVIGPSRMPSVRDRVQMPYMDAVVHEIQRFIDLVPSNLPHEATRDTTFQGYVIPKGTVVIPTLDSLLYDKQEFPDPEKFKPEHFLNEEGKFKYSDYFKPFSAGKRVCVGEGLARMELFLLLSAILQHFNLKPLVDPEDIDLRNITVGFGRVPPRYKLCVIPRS
Chain of UniProt P08246 (whole entry, looked up): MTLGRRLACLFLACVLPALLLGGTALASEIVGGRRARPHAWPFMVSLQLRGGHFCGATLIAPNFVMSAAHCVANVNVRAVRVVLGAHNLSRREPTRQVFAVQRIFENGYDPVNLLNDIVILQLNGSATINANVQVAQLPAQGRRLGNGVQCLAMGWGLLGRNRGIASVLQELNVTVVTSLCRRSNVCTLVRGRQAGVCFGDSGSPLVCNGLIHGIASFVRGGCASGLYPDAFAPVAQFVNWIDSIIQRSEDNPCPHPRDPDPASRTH
Chain of UniProt O89049 (whole entry, looked up): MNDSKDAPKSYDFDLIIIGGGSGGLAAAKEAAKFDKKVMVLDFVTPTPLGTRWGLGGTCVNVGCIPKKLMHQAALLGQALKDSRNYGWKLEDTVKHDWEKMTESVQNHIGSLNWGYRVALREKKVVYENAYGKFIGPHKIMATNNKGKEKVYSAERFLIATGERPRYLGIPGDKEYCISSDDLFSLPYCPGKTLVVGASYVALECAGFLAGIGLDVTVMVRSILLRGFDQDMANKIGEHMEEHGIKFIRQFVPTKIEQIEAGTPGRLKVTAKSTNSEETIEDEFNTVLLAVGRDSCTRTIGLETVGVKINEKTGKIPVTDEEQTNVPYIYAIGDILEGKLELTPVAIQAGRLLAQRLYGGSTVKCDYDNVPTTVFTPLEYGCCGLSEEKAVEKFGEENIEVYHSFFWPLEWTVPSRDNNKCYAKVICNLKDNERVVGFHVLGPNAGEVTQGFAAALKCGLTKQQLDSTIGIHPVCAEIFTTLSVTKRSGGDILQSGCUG

Clc1ccc(C(c2ccc(Cl)cc2)C(Cl)(Cl)Cl)cc1  fold induction (NR1I2; reporter gene, agonist, luciferase; COS-7; 24 h; reference: DMSO): 5.2 ± 0.6 fold
Clc1ccc(-c2ccc(Cl)c(Cl)c2)cc1Cl  Ki (Aryl hydrocarbon receptor (AHR, Delphinapterus leucas, UniProt Q95LD9); binding, competitor; in vitro expressed receptor, added: [3H]TCDD): 7.8 nM
O=C(O)COc1ccc(C(=O)c2cccs2)c(Cl)c1Cl  inhibition (CYP2C8 human; M3 formation from THC, inhibitor; human liver microsomes; 50 µM, six individual donors, added: THC 2 µM): no effect
Oc1ccc(/C=C/c2cc(O)cc(O)c2)cc1  Km (UGT1A7 human recombinant; substrate, item: 3-glucuronide; pH 7.4): 52.3 ± 42 µM
C#CCOc1ccc(-c2ccc(OCC#C)cc2)cc1  Kd (Cytochrome P450 2A13 (Homo sapiens, UniProt Q16696); binding, absorbance; pH 7.4): 6.5 µM
N#Cc1ccnc(N2C(=O)CC[C@H]2C(=O)N(c2cncc(F)c2)[C@H](C(=O)NC2CC(F)(F)C2)c2ccccc2Cl)c1  inhibition (SLC22A6 (Homo sapiens, UniProt Q4U2R8); p-aminohippurate uptake, inhibitor; HEK293 transfected with SLC22A6; up to 65 µM, 1 min, added: [3H]-p-aminohippurate): < 50%
Brc1ccc(Oc2ccc(Br)cc2Br)cc1  fold induction (PXR (polar bear); reporter gene, agonist, luciferase; COS-7; 24 h; reference: DMSO): 0.9 ± 0.2 fold
CC1=C(CO)C2=C(C)C3(CC3)[C@@](C)(O)C(=O)C2=C1  peptide signal reduction (Thioredoxin reductase 1, cytoplasmic, active site peptide (Txnrd1, Rattus norvegicus, UniProt O89049); LC-MS of tryptic digest, item: active site peptide; concentration not given; reference: untreated enzyme): 60%
C=C(C)[C@@H]1CCC(C)=C[C@H]1c1c(O)cc(CCCCC)cc1O  inhibition (CYP2A6; nicotine C-oxidation to cotinine, inhibitor; microsomes of overexpressing HEK293 cells; 10 µM, 30 min, pH 7.4, added: nicotine 100 µM): 70%
Brc1ccc(Oc2ccc(Br)cc2Br)c(Br)c1  fold induction (NR1I2; reporter gene, agonist, luciferase; COS-7; 24 h; reference: DMSO): 5.8 ± 0.6 fold
C#CCOCc1ccc(-c2ccccc2)cc1  Kd (CYP2A6; binding, absorbance; pH 7.4): 43 µM
c1cn[nH]c1  Kd (CYP2E1 (Oryctolagus cuniculus, UniProt P08682); spectral titration; pH 7.4, 25 °C, first catalytic site): 19 µM
Clc1ccc(Cl)c(-c2cc(Cl)ccc2Cl)c1  fold induction (NR1I2; reporter gene, agonist, luciferase; COS-7; 24 h; reference: DMSO): 1.1 ± 0.2 fold
C[C@@H]1CC[C@]2(C(=O)O)CC[C@]3(C)C(=CC[C@@H]4[C@@]5(C)CC[C@H](O)[C@@](C)(CO)[C@@H]5CC[C@]43C)[C@@H]2[C@]1(C)O  remaining activity (CYP3A4/5; midazolam 1'-hydroxylation, inhibitor, probe cocktail incubation; pooled human liver microsomes; 10 µM, 20 min, added: midazolam 1.535 µM): 88.2%
Clc1cc(Cl)c(-c2c(Cl)cc(Cl)c(Cl)c2Cl)c(Cl)c1  fold induction (PXR (polar bear); reporter gene, agonist, luciferase; COS-7; 24 h; reference: DMSO): 1.8 ± 0.6 fold
CC[N+]1=C(C=CC=CC=C2N(CCCCCC(=O)NCCN3C(=O)CC(SC[C@@H](NC(=O)[C@@H](CCCNC(=N)N)NC(=O)[C@@H](CCCNC(=N)N)NC(=O)[C@@H](CCCNC(=N)N)NC(=O)[C@@H](CCCNC(=N)N)NC(=O)[C@@H](CCCNC(=N)N)NC(=O)[C@@H](CCCNC(=N)N)NC(=O)[C@@H](CCCNC(=N)N)NC(=O)[C@@H](CCCNC(=N)N)NC(=O)[C@@H](CCCNC(=N)N)NC(=O)[C@H](CC(C)C)NC(=O)[C@H](CCCCN)NC(=O)[C@H](CC(C)C)NC(=O)[C@H](CCC(N)=O)NC(=O)[C@H](CC(C)C)NC(=O)[C@H](CCCNC(=N)N)NC(=O)CCCCCNC(=O)[C@@H](CCC(=O)O)NC(=O)[C@@H](CCC(=O)O)NC(=O)[C@@H](CCC(=O)O)NC(=O)[C@@H](CCC(=O)O)NC(=O)[C@@H](CCC(=O)O)NC(=O)[C@@H](CCC(=O)O)NC(=O)[C@@H](CCC(=O)O)NC(=O)[C@@H](CCC(=O)O)NC(=O)[C@H](N)CCC(=O)O)C(N)=O)C3=O)c3ccc(S(=O)(=O)O)cc3C2(C)C)C(C)(C)c2cc(S(=O)(=O)[O-])ccc21 (stereo partly shown)  cleavage (Neutrophil elastase (ELANE, Homo sapiens, UniProt P08246); substrate; 5 µM, 2 h): 79 ± 2.8%

A few entries again:
Brc1ccc(Oc2ccc(Br)cc2Br)c(Br)c1  fold induction (NR1I2; reporter gene, agonist, luciferase; COS-7; 24 h; reference: DMSO): 5.8 ± 0.6 fold
